Assay results pooled from the literature.
Numbered parts are unrelated; each lists some results of a single study.
UniProt Q6PHR2, sequence (whole entry, looked up): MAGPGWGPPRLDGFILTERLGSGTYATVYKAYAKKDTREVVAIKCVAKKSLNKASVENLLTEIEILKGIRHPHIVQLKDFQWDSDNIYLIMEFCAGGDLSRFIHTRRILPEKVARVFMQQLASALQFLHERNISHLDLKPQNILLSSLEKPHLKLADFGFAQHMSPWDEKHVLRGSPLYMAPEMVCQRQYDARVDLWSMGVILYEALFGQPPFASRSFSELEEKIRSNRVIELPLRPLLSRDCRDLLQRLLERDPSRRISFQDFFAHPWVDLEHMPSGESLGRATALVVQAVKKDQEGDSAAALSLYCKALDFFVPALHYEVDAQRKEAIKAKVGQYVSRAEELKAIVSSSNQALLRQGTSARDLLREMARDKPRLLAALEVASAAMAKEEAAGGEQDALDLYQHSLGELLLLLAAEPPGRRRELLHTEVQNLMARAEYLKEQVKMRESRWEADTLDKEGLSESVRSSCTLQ
UniProt P22607, sequence (whole entry, looked up): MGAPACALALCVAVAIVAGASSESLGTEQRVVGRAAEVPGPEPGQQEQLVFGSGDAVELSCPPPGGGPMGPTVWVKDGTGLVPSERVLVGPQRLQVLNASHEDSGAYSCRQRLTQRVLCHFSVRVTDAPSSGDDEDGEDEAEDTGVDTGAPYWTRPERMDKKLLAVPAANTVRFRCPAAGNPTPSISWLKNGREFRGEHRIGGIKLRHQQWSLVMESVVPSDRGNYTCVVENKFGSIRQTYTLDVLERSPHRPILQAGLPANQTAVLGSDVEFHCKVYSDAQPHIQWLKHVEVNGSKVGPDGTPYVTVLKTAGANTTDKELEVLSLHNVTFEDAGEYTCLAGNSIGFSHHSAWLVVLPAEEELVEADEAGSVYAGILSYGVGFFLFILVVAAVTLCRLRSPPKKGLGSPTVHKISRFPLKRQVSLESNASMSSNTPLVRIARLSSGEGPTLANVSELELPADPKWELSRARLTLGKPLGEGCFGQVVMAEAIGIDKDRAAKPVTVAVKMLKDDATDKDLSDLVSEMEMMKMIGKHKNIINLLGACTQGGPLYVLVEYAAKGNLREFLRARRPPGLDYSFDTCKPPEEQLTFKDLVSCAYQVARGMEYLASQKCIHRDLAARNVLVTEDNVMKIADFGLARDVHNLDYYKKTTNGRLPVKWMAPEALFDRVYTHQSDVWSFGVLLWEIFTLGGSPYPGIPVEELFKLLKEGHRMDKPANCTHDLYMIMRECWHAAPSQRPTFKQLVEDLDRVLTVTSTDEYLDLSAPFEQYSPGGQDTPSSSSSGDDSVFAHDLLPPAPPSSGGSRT
UniProt Q9UHD2, sequence (whole entry, looked up): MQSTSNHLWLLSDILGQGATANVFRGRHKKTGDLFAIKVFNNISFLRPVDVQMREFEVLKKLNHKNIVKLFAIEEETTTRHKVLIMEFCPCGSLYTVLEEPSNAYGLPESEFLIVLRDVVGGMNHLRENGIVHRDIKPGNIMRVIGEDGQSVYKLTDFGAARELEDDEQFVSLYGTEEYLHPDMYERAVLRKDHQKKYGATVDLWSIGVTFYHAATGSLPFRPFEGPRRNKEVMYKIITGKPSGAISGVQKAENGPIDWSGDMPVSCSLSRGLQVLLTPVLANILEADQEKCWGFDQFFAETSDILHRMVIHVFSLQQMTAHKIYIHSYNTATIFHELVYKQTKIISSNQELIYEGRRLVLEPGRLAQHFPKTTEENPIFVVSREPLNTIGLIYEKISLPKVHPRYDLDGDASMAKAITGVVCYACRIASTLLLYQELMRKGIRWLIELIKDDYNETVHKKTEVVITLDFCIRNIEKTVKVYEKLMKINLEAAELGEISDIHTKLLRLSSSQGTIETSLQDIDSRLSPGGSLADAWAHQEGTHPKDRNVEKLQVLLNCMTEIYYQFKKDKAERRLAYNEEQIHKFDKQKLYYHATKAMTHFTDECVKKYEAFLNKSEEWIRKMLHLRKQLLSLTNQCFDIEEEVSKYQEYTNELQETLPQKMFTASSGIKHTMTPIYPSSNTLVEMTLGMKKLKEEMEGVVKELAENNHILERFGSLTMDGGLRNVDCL
UniProt P42685, sequence (whole entry, looked up): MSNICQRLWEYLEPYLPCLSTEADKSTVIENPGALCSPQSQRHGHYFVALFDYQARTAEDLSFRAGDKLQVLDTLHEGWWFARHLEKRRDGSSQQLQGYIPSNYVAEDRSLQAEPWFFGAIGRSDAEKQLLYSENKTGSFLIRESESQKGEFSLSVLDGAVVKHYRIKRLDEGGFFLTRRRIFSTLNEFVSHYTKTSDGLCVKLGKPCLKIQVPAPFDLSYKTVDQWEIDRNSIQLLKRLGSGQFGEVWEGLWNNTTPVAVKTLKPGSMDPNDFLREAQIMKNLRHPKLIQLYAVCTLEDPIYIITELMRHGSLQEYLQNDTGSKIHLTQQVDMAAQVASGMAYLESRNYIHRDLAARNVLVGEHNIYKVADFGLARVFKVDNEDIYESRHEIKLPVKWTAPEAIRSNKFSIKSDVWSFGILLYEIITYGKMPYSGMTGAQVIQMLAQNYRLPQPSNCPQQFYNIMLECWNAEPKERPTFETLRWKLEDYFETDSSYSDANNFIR
UniProt P0C264, sequence (whole entry, looked up): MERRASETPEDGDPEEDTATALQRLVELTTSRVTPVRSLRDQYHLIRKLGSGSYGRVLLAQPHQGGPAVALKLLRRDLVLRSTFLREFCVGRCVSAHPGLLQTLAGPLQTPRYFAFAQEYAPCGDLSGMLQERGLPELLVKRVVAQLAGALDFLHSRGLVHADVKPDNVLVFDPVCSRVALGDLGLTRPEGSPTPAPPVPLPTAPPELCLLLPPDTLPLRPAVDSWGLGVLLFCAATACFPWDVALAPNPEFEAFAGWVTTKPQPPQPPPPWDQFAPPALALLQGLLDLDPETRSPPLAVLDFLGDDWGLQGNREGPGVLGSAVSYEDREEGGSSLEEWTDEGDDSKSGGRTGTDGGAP
UniProt P27361, sequence (whole entry, looked up): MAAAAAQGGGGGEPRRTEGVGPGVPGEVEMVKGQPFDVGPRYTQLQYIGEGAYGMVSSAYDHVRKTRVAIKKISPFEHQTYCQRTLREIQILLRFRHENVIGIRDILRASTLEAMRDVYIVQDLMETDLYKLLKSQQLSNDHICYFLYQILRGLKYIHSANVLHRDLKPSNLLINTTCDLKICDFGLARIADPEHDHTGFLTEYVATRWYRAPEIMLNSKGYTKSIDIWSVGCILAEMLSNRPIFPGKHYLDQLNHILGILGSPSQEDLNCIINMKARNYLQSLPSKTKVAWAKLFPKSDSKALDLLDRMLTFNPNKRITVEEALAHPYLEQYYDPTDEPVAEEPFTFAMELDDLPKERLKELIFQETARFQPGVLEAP
UniProt Q15349, sequence (whole entry, looked up): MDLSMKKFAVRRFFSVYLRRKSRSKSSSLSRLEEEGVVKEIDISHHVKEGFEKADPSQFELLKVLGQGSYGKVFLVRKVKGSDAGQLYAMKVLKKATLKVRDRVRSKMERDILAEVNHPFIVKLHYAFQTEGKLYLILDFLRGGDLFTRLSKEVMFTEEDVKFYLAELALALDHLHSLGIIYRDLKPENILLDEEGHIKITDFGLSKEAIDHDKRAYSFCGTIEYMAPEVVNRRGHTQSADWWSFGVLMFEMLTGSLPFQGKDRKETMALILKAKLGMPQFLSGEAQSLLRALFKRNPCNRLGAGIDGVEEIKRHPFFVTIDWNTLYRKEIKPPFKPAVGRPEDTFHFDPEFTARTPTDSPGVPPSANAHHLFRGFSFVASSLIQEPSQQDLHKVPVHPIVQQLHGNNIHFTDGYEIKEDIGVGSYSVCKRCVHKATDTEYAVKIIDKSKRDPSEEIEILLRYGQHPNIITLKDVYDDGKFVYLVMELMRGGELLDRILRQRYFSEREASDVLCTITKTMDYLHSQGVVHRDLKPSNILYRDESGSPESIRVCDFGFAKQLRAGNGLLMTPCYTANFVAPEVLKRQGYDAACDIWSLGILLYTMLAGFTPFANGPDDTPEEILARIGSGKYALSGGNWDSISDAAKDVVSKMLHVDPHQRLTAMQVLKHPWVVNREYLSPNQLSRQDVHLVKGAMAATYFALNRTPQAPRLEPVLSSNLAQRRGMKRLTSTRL
UniProt Q8WTQ7, sequence (whole entry, looked up): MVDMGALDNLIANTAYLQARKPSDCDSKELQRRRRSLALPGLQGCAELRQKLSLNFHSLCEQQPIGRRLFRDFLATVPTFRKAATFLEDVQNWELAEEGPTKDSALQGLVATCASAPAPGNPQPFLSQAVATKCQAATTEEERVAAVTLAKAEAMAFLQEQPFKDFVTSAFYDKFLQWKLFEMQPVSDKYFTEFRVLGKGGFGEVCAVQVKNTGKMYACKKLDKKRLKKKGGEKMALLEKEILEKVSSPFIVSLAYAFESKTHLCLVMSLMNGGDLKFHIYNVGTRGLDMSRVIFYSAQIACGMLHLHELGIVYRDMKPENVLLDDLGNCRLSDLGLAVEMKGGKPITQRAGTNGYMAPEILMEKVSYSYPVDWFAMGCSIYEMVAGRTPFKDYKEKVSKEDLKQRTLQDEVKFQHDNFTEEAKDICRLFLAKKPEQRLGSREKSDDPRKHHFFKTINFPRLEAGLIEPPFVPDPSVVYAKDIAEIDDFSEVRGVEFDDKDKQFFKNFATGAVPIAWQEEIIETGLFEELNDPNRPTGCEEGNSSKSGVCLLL

Study 1 — technique: RNA Bind-n-Seq; form: RNA; medium: in vitro; tested at: 200 nM; notes: whole 134-nt RNA, ends assumed; with: 150 mM KCl; reference: input library; direction: higher = stronger binding; measurement: log2 enrichment
Target: Ras GTPase-activating protein-binding protein 1, full length (G3BP1, Homo sapiens, UniProt Q13283)
UniProt Q13283, sequence (whole entry, looked up): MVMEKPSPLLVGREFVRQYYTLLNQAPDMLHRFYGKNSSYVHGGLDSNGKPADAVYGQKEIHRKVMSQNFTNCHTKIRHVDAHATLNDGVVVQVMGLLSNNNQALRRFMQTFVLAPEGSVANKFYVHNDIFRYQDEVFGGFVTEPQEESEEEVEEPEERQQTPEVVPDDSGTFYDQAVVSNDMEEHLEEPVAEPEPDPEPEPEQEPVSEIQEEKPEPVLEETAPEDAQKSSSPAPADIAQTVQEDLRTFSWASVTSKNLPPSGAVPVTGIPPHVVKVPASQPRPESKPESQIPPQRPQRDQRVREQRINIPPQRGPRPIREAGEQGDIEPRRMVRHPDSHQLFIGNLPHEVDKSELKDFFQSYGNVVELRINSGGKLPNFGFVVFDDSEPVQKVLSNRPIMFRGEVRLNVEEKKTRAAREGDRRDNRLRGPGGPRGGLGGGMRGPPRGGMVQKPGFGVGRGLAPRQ
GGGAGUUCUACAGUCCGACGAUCUUUCUUCUGCUGCUGCUAGUCAUGAGAUCAAGGUGGGUCUGAGAAUGGCCAUUCAGAGGCCCUGGAUAGUAACCAGGUAAUGGAUGACACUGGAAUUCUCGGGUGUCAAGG: -0.776
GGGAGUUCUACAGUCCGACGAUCUGGGAGGUGGAUUUUGUUUAUUUUUUUAGCUCAUUUCAAGGGGUGGGAAUUUUUUUUUAAUAUGUGUCAUGAAUAAAGUUGUUUUUGAAAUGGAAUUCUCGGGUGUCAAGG: 0.163
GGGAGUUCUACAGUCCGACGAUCCAAGUCCUGUGCUACACAUCGUAUGUACCGAAUCGGGUUUUUGGGAGGGAAAGGGAAAGUAUUAUGUUACGCCGUUCGGAUCUGCACUUCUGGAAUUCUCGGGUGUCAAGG: 0.517
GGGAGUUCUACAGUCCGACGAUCUUUUAGGAAGCUGCAGUAAAGGAAGAUGAAGAAGAAGUUUCAGAUAAGGGCAGUGAUUCUGAAGAAGAAGAAACCAAUAGAGAUUCCCAAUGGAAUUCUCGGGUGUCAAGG: -1.02
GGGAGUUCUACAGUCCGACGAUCCAAGUCCUGUGCUACACAUCGUAUGUACCGAAUCGGAAAGGGAAAGGGAAAGGGGAAAGUAUUAUGUUACGCCGUUCGGAUCUGCACUUCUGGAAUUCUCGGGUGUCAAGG: -0.246
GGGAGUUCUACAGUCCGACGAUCUCCUGUGCUACACAUCGUAUGUACCGAAUCGGGGUUUUUUGGUUUUUUGGGGUUUUUUGGAAAGUAUUAUGUUACGCCGUUCGGAUCUGCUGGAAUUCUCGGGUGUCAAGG: -0.248
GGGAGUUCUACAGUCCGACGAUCACCAUGCAGGUGGGCAUCUUUGGGAAGUGGGGCAAGGGGGGUAUAGGGAGGGGGGUAACACUUUGGGAACAGGUGGUCCCAGGUCGUUUCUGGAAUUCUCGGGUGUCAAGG: 0.863
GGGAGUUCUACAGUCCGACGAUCGUCCUGUGCUACACAUCGUAUGUACCGAAUCGGGAAAAAAAGGGUUUGGGUUUUUGGGAAAGUAUUAUGUUACGCCGUUCGGAUCUGCACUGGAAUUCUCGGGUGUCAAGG: -0.483

Study 2 — SMILES: COc1cc2ncnc(Nc3cccc(Cl)c3)c2cc1OC; read-out: enzyme activity; action: inhibitor; tested at: 0.5 µM; reference: control; measurement: remaining activity
Tyrosine-protein kinase FRK (FRK, Homo sapiens, UniProt P42685): 81.1%
Ribosomal protein S6 kinase alpha-2 (RPS6KA2, Homo sapiens, UniProt Q15349): 85.5%
Rhodopsin kinase GRK7 (GRK7, Homo sapiens, UniProt Q8WTQ7): 85.4%
Mitogen-activated protein kinase 3 (MAPK3, Homo sapiens, UniProt P27361): 96.4%
Serine/threonine-protein kinase ULK3 (ULK3, Homo sapiens, UniProt Q6PHR2): 77.3%
Serine/threonine-protein kinase ULK2 (ULK2, Homo sapiens, UniProt Q8IYT8): 103%
Serine/threonine-protein kinase TBK1 (TBK1, Homo sapiens, UniProt Q9UHD2): 78%
Fibroblast growth factor receptor 3 (FGFR3, Homo sapiens, UniProt P22607): 88.5%
Tyrosine-protein kinase Mer (MERTK, Homo sapiens, UniProt Q12866): 76.9%
Mitogen-activated protein kinase kinase kinase 5 (MAP3K5, Homo sapiens, UniProt Q99683): 106%
Dual specificity mitogen-activated protein kinase kinase 2 (MAP2K2, Homo sapiens, UniProt P36507): 102%
MAP kinase-activated protein kinase 2 (MAPKAPK2, Homo sapiens, UniProt P49137): 98%
Tyrosine-protein kinase JAK3 (JAK3, Homo sapiens, UniProt P52333): 91.6%

Study 3 — technique: competition protein-binding microarray; form: double-stranded DNA, one strand shown; medium: in vitro; tested at: 2 µM; with: Cbf1 competitor, 0.05 µM; direction: higher = stronger binding; measurement: fluorescence intensity
Target: Phosphate system positive regulatory protein PHO4, full length, GST-tagged (PHO4, Saccharomyces cerevisiae, UniProt P07270, residues 1-312)
Notes: whole 60-bp probe, lowest competitor level
Construct (chain): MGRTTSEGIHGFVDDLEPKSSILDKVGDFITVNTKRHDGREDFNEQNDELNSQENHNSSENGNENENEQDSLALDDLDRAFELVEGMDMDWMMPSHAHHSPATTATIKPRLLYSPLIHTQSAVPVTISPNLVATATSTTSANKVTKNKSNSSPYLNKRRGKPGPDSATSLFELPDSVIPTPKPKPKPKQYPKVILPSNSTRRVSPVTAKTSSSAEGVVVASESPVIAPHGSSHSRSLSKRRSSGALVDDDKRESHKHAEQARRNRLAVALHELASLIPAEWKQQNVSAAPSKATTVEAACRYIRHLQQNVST
AAGCCCAGATACAATCACCTGTAGAAAGAAACAAAGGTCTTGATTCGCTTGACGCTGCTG: 4450 a.u.
AGCTGATGCAATTATCCAATAATTTCTTTCACCACCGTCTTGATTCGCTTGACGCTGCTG: 4030 a.u.
AAAGGCTCAGATCTGCATGTGTTGTATAACACTGGCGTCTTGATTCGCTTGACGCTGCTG: 7890 a.u.
GTCTTGTCTCATTGAAGGGTGGGTGTCCCCACTTCAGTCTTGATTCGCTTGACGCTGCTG: 4630 a.u.
CGATGTTCTTAATTACACGTGAATTATCAAAAACCAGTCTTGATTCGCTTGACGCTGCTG: 13200 a.u.
TGCGGTGTAACGGTCCCCGTGCGGAAGTCAACGGAAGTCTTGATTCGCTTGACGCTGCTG: 8840 a.u.
CAGCGTTATCGCCGTCACGGCGATCTTGAAGTGTAGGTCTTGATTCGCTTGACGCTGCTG: 4190 a.u.
ACTTCTACTAAGAGTAACGTGGCCGAGAAGAGAAGAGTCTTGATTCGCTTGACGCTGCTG: 10900 a.u.

Study 4 — read-out: cell-free assay; technique: competition with immobilised ligand; tested at: 1 µM; measurement: remaining binding
Structure (SMILES): COc1cc(-c2cn(C3CCc4ccccc4N(CC(F)(F)F)C3=O)nn2)ccc1-n1ccc(C)n1 (centres unmarked)
Serine/threonine-protein kinase Nek11 (NEK11, Homo sapiens, UniProt Q8NG66): 99%
Uncharacterized serine/threonine-protein kinase SBK3 (SBK3, Homo sapiens, UniProt P0C264): 92%
Mast/stem cell growth factor receptor Kit (KIT, Homo sapiens, UniProt P10721, A829P): 68%

Excerpt of the above (study 2):
Ribosomal protein S6 kinase alpha-2 (RPS6KA2, Homo sapiens, UniProt Q15349): 85.5%
Rhodopsin kinase GRK7 (GRK7, Homo sapiens, UniProt Q8WTQ7): 85.4%
Mitogen-activated protein kinase 3 (MAPK3, Homo sapiens, UniProt P27361): 96.4%
